Measurements collected from several papers.
Parts stem from different laboratories: compare values within a part only.

Sample 1
Target: Fragile X messenger ribonucleoprotein 1, C-terminal low-complexity region (Fmr1, Mus musculus, UniProt P35922)
Method: RNA Bind-n-Seq
Molecule type: RNA
Sample: in vitro
Tested at: 200 nM
Setting: whole 134-nt RNA, ends assumed
Added: 150 mM KCl
Baseline: input library
Direction: higher = stronger binding
Constant ends, left off below: GGGAGUUCUACAGUCCGACGAUC … UGGAAUUCUCGGGUGUCAAGG
The log2 enrichment of `UGUGCUACACAUCGUAUGUACCGAAUCGGGGAAAAAAAGGGGAAAAAAAGGGGAAAAAAAGGAAAGUAUUAUGUUACGCCGUUCGGAUCU` is reported as -0.122.
For `CACAGACAACACGCACCCACACAGACACAGAGGGAAGGGGUUGGGAUGGGGACAGGGUGCACAGCAGGGCGGGGUAGGACGCCAGCCCCU`, the log2 enrichment was 1.19.
`UCAAGUCCUGUGCUACACAUCGUAUGUACCGAAUCGGGUUGGGGUUGGGUUGGGAAAGUAUUAUGUUACGCCGUUCGGAUCUGCACUUCC` gave a log2 enrichment of 1.33.
The log2 enrichment of `CAAGUCCUGUGCUACACAUCGUAUGUACCGAAUCGGAAAAAAAGGUUUUUGGAGGAAAGUAUUAUGUUACGCCGUUCGGAUCUGCACUUC` is reported as -0.956.
For `CCUGUGCUACACAUCGUAUGUACCGAAUCGGGCCCCCCCGGCCCCCCCGGGCCCCCCCGGGAAAGUAUUAUGUUACGCCGUUCGGAUCUG`, the log2 enrichment was -0.596.
`UGUGCUACACAUCGUAUGUACCGAAUCGGGGUUUUUGGGGUUUUUUUGGGGUUUUUUUGGGGAAAGUAUUAUGUUACGCCGUUCGGAUCU` gave a log2 enrichment of 0.535.
`GUCCUGUGCUACACAUCGUAUGUACCGAAUCGGGCCCCCCGGCCCCCCGGCCCCCCGGGAAAGUAUUAUGUUACGCCGUUCGGAUCUGCA` gave a log2 enrichment of -0.209.
`GUCCUGUGCUACACAUCGUAUGUACCGAAUCGGGGUUUUUGGGUUUUUGGUUUUUGGGAAAGUAUUAUGUUACGCCGUUCGGAUCUGCAC` has a log2 enrichment of -0.339.
With `ACCAUGCCGGUGGGCAUCUUUGGGAAGUGGGGCAAGGGGGGGAUAGGGAGGGGGGUAACACUUUGGGAACAGGUGGUCCCAGGUCGUUUC` the log2 enrichment was 1.18.

Sample 2
Target: Histone acetyltransferase KAT6A, both winged helices, GST fusion (KAT6A, Homo sapiens, UniProt Q92794, residues 1-181)
Method: protein binding microarray
Molecule type: double-stranded DNA, one strand shown
Sample: in vitro
Tested at: not given
Setting: 8-mer, flanks averaged, mean of 2 arrays, mostly near background
Baseline: not given
Direction: higher = stronger binding
Construct (chain): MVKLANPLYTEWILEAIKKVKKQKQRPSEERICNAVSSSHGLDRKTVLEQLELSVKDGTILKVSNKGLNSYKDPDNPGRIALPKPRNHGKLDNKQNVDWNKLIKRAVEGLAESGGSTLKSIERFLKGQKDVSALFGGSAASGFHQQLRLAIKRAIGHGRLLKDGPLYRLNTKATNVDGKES
`GCTTGGAA` gave an E-score of 0.0222.
For `ACTACTGC`, the E-score was 0.091.
`AACCACCG` gave an E-score of 0.143.
For `GATGGTCA`, the E-score was -0.0944.
The E-score of `TCCGCAAA` is reported as 0.147.
For `AGGACCTA`, the E-score was -0.00886.
With `ACATATCT` the E-score was -0.149.
`ACTTGGAA` has an E-score of -0.191.
`GAAACAAC` gave an E-score of -0.045.
The E-score of `CCTCCCGA` is reported as -0.0149.
The E-score of `AAGGTGCG` is reported as 0.088.
For `CTCAGGTA`, the E-score was -0.269.
`CACGGGAA` gave an E-score of 0.237.
`ATGGGCTG` has an E-score of -0.174.
`ACCTGGCG` has an E-score of 0.0886.
For `AATGGAGT`, the E-score was -0.234.
For `GACTCGGC`, the E-score was 0.115.
`TCCACTAA` gave an E-score of -0.151.
With `AGTTCAGG` the E-score was -0.14.
For `ATCATTCC`, the E-score was -0.0123.
The E-score of `TGTCAGAA` is reported as -0.136.
For `CTACTTCC`, the E-score was -0.106.
The E-score of `AGTACGGA` is reported as 0.22.
The E-score of `GAACGCGA` is reported as 0.0891.
The E-score of `CTGCTGTA` is reported as -0.0867.

Sample 3
Organism: Saccharomyces cerevisiae
Read-out: pheromone growth arrest
Method: yeast competitive growth sequencing
Molecule type: peptide
Strain: no Cln2 overexpression
Setting: peptide tiling library
Direction: direction not given
`DVSERGYVILPNDYFE` gave an enrichment score of 0.07.
`QYQVVDDIVSKLVFDF` gave an enrichment score of 0.0924.
With `ATNSSHTDAHEILVSD` the enrichment score was 0.463.
`ESSQLTVQAEFDMSAI` has an enrichment score of -0.0229.
`QNPCGSKACRRLFGPV` has an enrichment score of -0.274.
`LENIEPLQVSFAVLSS` has an enrichment score of 0.36.
`DKYDEGLYRFNSLNDL` has an enrichment score of -0.321.
`ASVLSKPIFCFVKD` has an enrichment score of -0.0777.
For `EHCRVLFLDHVMYTIH`, the enrichment score was -0.103.
`NEGVSNAVRRSLYIRD` gave an enrichment score of -0.151.
The enrichment score of `VLPGGVPSPGASLTSM` is reported as -0.576.
The enrichment score of `NESHLDKEHDAVEVAD` is reported as 0.251.
For `NSMKELNFSHLPSNSV`, the enrichment score was -0.25.
`KVRRNLFNQELLSP` has an enrichment score of 0.115.
`AEHPKPSACRNLFGPV` has an enrichment score of 0.23.

Sample 4
Target: RNA binding protein fox-1 homolog 2, RRM domain, GST-SBP tag (RBFOX2, Homo sapiens, UniProt O43251-10, residues 100-194)
Method: RNA Bind-n-Seq
Molecule type: RNA
Sample: in vitro
Tested at: 365 nM
Setting: natural RNA segment, single round, ends assumed
Baseline: no-protein control
Direction: higher = stronger binding
Constant ends, left off below: GGGAGUUCUACAGUCCGACGAUC … UGGAAUUCUCGGGUGCCAA
Residues (chain): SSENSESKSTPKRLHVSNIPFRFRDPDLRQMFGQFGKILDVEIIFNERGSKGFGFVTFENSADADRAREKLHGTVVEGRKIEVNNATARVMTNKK
For `CUCCUGCGGCACCCCGAGAGGGACCCCCAUGCUGGACACCUUCAGAGCGUGUGCAUAGGUGGUCUCUGACCUGAACAUCACAGUGCGGAGAAAGCCCGGCUGGAAACACC`, “RBNS enrichment (R)” read 0.233.
`GCCGUCUUCUCUUAGAAGGGGAUGCAGUACUGUACAAAGAUUGAGCUGGAUGUCGCAUUGCAUGUUUGCUGAGUCCUCCUCAUUGCUGAUGUUAGGAUCCUUCAACAGUU`: “RBNS enrichment (R)” 29.8.
Under “RBNS enrichment (R)”, `UAUUGGGUGGGUUUACUCUUAGAAUCGCAUGCUGUAGAAAUGCUCAAAAGUGCAUAUGGGACUCAGUCCUUAGGUGUUCUUUUUCUUUUAAGAAAUAACCUCUUACAGUU` is recorded as 0.351.
`GACGCUCUCAUUAAAAUCCAUGCAGCCAAGCUCUGCGCUUUGUAGCAGCCGGCCUUGCAGAGCCUCCUCAGCUUGGGGGGCUGGGGACCCAGUCAGCUGAGAGGUCCUCU` — result for “RBNS enrichment (R)”: 0.531.
`ACUACAGAAUAAUGUGCUAAGUAGUGCUAAAUAGUUCUUGACGAAGAAAACAGUCACUGCAUUUAUCUCUGUGAGUCUUUGUUCAGAGAGGCCUUUAGUCUAGAUUCUGC` — result for “RBNS enrichment (R)”: 0.955.
`AGUUUUCAGAUUGGAGAUUCAAGAUUUGUUCCACUUUACAAGCAAGAGGAAAAAAAAGCAACCUUCAAACUAAUUCUCCAUGGGGGCUCUCCAUGUUACCCUCCACUCCU`: “RBNS enrichment (R)” 0.37.
Under “RBNS enrichment (R)”, `UGUCCUGACCUUUUCAGUCCUACAGAGACGCAUCUGUGGUUCUUUUGUACUUGCCAUAGAUGUAACCUAAAAAGUUUUGGCAUAUUUAGGUCAGCCUAGCGGAACUUUUU` is recorded as 0.275.
Under “RBNS enrichment (R)”, `GUAACGAUGACCUCCUGUCUCUAUUUGAGAACAACUGGGGCCACCCGGUCGGGGCCAUCCCUCCACACUCUGCAUCCUACCCCACCUACCCAACACACUUUUCCACCUGG` is recorded as 1.13.

For quick reference, copied from above (sample 4):
For `CUCCUGCGGCACCCCGAGAGGGACCCCCAUGCUGGACACCUUCAGAGCGUGUGCAUAGGUGGUCUCUGACCUGAACAUCACAGUGCGGAGAAAGCCCGGCUGGAAACACC`, “RBNS enrichment (R)” read 0.233.
`GCCGUCUUCUCUUAGAAGGGGAUGCAGUACUGUACAAAGAUUGAGCUGGAUGUCGCAUUGCAUGUUUGCUGAGUCCUCCUCAUUGCUGAUGUUAGGAUCCUUCAACAGUU`: “RBNS enrichment (R)” 29.8.
Under “RBNS enrichment (R)”, `UAUUGGGUGGGUUUACUCUUAGAAUCGCAUGCUGUAGAAAUGCUCAAAAGUGCAUAUGGGACUCAGUCCUUAGGUGUUCUUUUUCUUUUAAGAAAUAACCUCUUACAGUU` is recorded as 0.351.
`GACGCUCUCAUUAAAAUCCAUGCAGCCAAGCUCUGCGCUUUGUAGCAGCCGGCCUUGCAGAGCCUCCUCAGCUUGGGGGGCUGGGGACCCAGUCAGCUGAGAGGUCCUCU` — result for “RBNS enrichment (R)”: 0.531.
`ACUACAGAAUAAUGUGCUAAGUAGUGCUAAAUAGUUCUUGACGAAGAAAACAGUCACUGCAUUUAUCUCUGUGAGUCUUUGUUCAGAGAGGCCUUUAGUCUAGAUUCUGC` — result for “RBNS enrichment (R)”: 0.955.
`AGUUUUCAGAUUGGAGAUUCAAGAUUUGUUCCACUUUACAAGCAAGAGGAAAAAAAAGCAACCUUCAAACUAAUUCUCCAUGGGGGCUCUCCAUGUUACCCUCCACUCCU`: “RBNS enrichment (R)” 0.37.
Under “RBNS enrichment (R)”, `UGUCCUGACCUUUUCAGUCCUACAGAGACGCAUCUGUGGUUCUUUUGUACUUGCCAUAGAUGUAACCUAAAAAGUUUUGGCAUAUUUAGGUCAGCCUAGCGGAACUUUUU` is recorded as 0.275.
Under “RBNS enrichment (R)”, `GUAACGAUGACCUCCUGUCUCUAUUUGAGAACAACUGGGGCCACCCGGUCGGGGCCAUCCCUCCACACUCUGCAUCCUACCCCACCUACCCAACACACUUUUCCACCUGG` is recorded as 1.13.
